Published values gathered from unrelated publications.
Lines come from different studies, so protocols differ.

CC(=O)N[C@@H](CSC(=O)[C@]1([C@@H](O)C(C)C)NC(=O)[C@H](C)[C@@H]1O)C(=O)O — EC50 (LDR; silenced CMV-GFP reporter derepression, qHTS): 2510 nM
C[C@]12CCCN1CC1=NNC(=O)c3cc(F)cc4[nH]c2c1c34 — EC50 (MEF PTEN+/-; cell proliferation, CellTiter-Glo; 168 h): 2900 nM
O=C1N=C(N2CCCCC2)O/C1=C\c1ccccc1O — EC50 (NG108-cl; clomeleon fluorescence, refers to: intracellular chloride reduction; 5 h): inactive
CCC(C)(C)C(=O)C(=O)N1CCCC[C@H]1C(=O)N[C@H](CCc1ccc(OC)cc1)C(=O)N1[C@@H]2CC[C@H]1C[C@H](Nc1nc(NCCc3sc(N)nc3C)nc(N3CCn4ncnc4C3)n1)C2 — EC50 (GFP-LC3 HeLa; GFP-LC3 puncta formation; added: rapamycin 5 µM): 11500 nM
CCn1cc(-c2cc(Cn3ccnc3)cc3c2CCN([C@H](c2cc(OC)ccn2)C2CC2)C3=O)c(C(F)(F)F)n1 — EC50 (RL; cell growth; 120 h): 19 nM
OCCN(CCO)c1nc(N2CCCCC2)c2nc(N(CCO)CCO)nc(N3CCCCC3)c2n1 — EC50 (Jurkat T cells, FKBP12 knock-out; [3H]-thymidine incorporation, inhibitor; 3 h): 89.8 nM
O=C(Cc1ccccc1)Nc1nnc(CCSCCc2nnc(NC(=O)Cc3ccccc3)s2)s1 — EC50 (TSE breast cancer cells; cell proliferation, automated cell counting; 144 h): 3100 nM
Cc1nc(/C=C2\SC(N3CCCCC3)=NC2=O)c(C)s1 — EC50 (NG108-cl; clomeleon fluorescence, refers to: intracellular chloride reduction; 5 h): inactive
CC(=CC(=O)O)CC(=O)O — log2 fold change (binding, MIDAS equilibrium dialysis LC-MS; A2AR-BRIL thermostabilized; concentration not given; reference: no-protein control): -0.0582
CCn1cc(-c2cc(Cn3ccoc3=N)cc3c2CCN([C@@H](C)c2cc(OC)ccn2)C3=O)c(C(F)(F)F)n1 — EC50 (LS-123; cell growth, inhibitor; 120 h): 0.857 nM
O=C1N=C(N2CCCCC2)S/C1=C/c1cccc(F)c1O — EC50 (NG108-cl; clomeleon fluorescence, refers to: intracellular chloride reduction; 5 h): inactive
COc1cnc2cccc(N3CCc4c(cc(Cn5ccnc5C)cc4-c4cn(C)nc4C(F)(F)F)C3=O)c2c1 — EC50 (LS-123; cell growth, inhibitor; 120 h): 17600 nM
O=C1N=C(N2CCCCC2)S/C1=C/c1cnccc1O — EC50 (NG108-cl; clomeleon fluorescence, refers to: intracellular chloride reduction; 5 h): inactive
Nc1nc2c(ncn2[C@H]2C[C@H](O)[C@@H](COP(=O)(O)OP(=O)(O)O)O2)c(=O)[nH]1 — log2 fold change (binding, MIDAS equilibrium dialysis LC-MS; A2AR-BRIL thermostabilized; concentration not given; reference: no-protein control): -0.494
C[C@]1(c2nc3c(C(N)=O)cccc3[nH]2)CCCN1 — EC50 (MEF PTEN+/-; cell proliferation, CellTiter-Glo; 168 h): > 10000 nM
O=C1N=C(N2CCCCC2)S/C1=C\c1cccc(O)c1 — EC50 (NG108-cl; clomeleon fluorescence, refers to: intracellular chloride reduction; 5 h): inactive
Cc1nc(NC(=O)N2CCC[C@H]2C(N)=O)sc1-c1ccnc(C(C)(C)C(F)(F)F)c1 — EC50 (HCC1954 PIK3CA H1047R; cell viability, ATP luminescence; 120 h): 2690 nM

For quick reference, copied from above:
O=C1N=C(N2CCCCC2)S/C1=C\c1cccc(O)c1 — EC50 (NG108-cl; clomeleon fluorescence, refers to: intracellular chloride reduction; 5 h): inactive
O=C1N=C(N2CCCCC2)S/C1=C/c1cccc(F)c1O — EC50 (NG108-cl; clomeleon fluorescence, refers to: intracellular chloride reduction; 5 h): inactive
